# Published values gathered from unrelated publications.
# Compare with care: the assays were run in different laboratories.
# Sample: Caco-2
setting,endpoint,result,Structure (SMILES)
"10 µM, 90 min",Papp,25.6 ×10⁻⁶ cm/s,CC1(C)CCN(Cc2ccc(C(=O)NC[C@]3(O)CCCN(c4cc(NCc5ccccc5)ncn4)C3)c(O)c2)CC1
"10 µM, 90 min, pH 7.4",Papp A→B,11.3 ×10⁻⁶ cm/s,COc1ccc2c(c1OCc1ccccc1)C[C@@H](C(=O)O)N(c1nc3ccc(C#N)cc3o1)C2
pH 6.5,Papp,11.2 ×10⁻⁶ cm/s,Cc1cnc(Nc2cc(C)c(C)c(C)c2)nc1Nc1ccc2oc(=O)[nH]c2c1
"10 µM, 2 h",Papp,51 ×10⁻⁶ cm/s,O=C(Nc1nc2cc(C(F)(F)F)cc(NC3CC3)n2n1)c1cccnc1
"50 mM, 2.5 h, pH 7.4",Papp B→A,15 ×10⁻⁶ cm/s,CCOC(=O)c1cc2cc(-c3cc(C(=O)NCc4ccc(C(=O)O)cc4)nn3C)ccc2[nH]1
,Papp A→B,≤ 2.5 ×10⁻⁶ cm/s,Nc1ccc(-c2ccc3ncc4c(=O)[nH]c(=O)n(-c5cccc(C(F)(F)F)c5)c4c3n2)cn1
"2 µM, 2 h",Papp B→A,1.14 ×10⁻⁶ cm/s,COC(=O)c1ccc2c(c1)NC(=O)/C2=C(\Nc1ccc2c(c1)CCN2C(=O)CN1CCOCC1)c1ccccc1
"10 µM, 3 h",Papp B→A,0.063 ×10⁻⁶ cm/s,CC1(C)CCC2(CO)C(=C3C=CC4[C@@]5(C)CCC(O)[C@@](C)(CO)C5CC[C@@]4(C)[C@]3(C)C[C@H]2O)C1 (stereo partly shown)
,Papp A→B,39.3 ×10⁻⁶ cm/s,O=S(=O)(c1ccccc1)N1CCCCC1
"200 µM, 3 h, pH 7.4",Papp A→B,1.17 ×10⁻⁶ cm/s,Cc1cc(O)cc(O)c1C(=O)c1c2c3c(c(O)cc(C)c3oc1=O)C(=O)c1c(O)cc(O)cc1-2
,Papp B→A,31.4 ×10⁻⁶ cm/s,NC(=O)c1c(F)ccc(OCc2nc3cc(Cl)cnc3s2)c1F
"5 µM, 2 h",Papp B→A,26 ×10⁻⁶ cm/s,O=C(C1CCN(c2nnnn2-c2ccccc2)CC1)N1CCCc2ccccc21
"5 µM, 1 h",Papp B→A,0.07 ×10⁻⁶ cm/s,CO[C@@H](C[C@H]1C(C)=CC[C@@H]2[C@]3(C)C[C@H](O[C@@H]4O[C@@H](C)[C@H](O)[C@@H](O)[C@H]4O)[C@@H](O)C(C)(C)[C@H]3CC[C@]21C)[C@H](N)C(=O)O

# Some of these lines once more:
setting,endpoint,result,Structure (SMILES)
"50 mM, 2.5 h, pH 7.4",Papp B→A,15 ×10⁻⁶ cm/s,CCOC(=O)c1cc2cc(-c3cc(C(=O)NCc4ccc(C(=O)O)cc4)nn3C)ccc2[nH]1
